Experimental data from different studies.
Each numbered part is a random draw from the data of one study; scales do not carry over between parts.

Block 1
Target: RNA binding protein fox-1 homolog 2, RRM domain, GST-SBP tag (RBFOX2, Homo sapiens, UniProt O43251-10, residues 100-194)
Technique: RNA Bind-n-Seq
Molecule type: RNA
Medium: in vitro
Tested at: 365 nM
Notes: natural RNA segment, single round, ends assumed
Reference: no-protein control
Reading: higher = stronger binding
Oligonucleotide	RBNS enrichment (R)
GGGAGUUCUACAGUCCGACGAUCCUCUGCCUUCUCCACCUCCGAGGCUGUGCAUUCAUCCAAUUAGUGUCAUGAAUGUUUCCCCUUUAUUUUUCCAAUAAAAAAAAGCAGUGGGAUGAAAAUUGCUUUGAUAUUGGAAUUCUCGGGUGCCAA	1.22
GGGAGUUCUACAGUCCGACGAUCGGUCAUAGUGUAUAAGUAGCUUCCUAGGAAACCCUUUGUGUAUCUUUUCAGACUGGGGUGGGGGCUGAGCAUGCUUGUGCAGAAAGAAGCCAUAGCCAGAAAGGACAGAAUGGAAUUCUCGGGUGCCAA	3.69
GGGAGUUCUACAGUCCGACGAUCAGACUGUUCCAUCUCAUUCCUCGCAAAUUUGAGCUCUUCUGAUCAAUUCUAAAUAUUUGAUUAAUUUUAAUUCUGAAAGAAAAUUUUGAGGAUUUAAGCUUAGGGGAUUUUGGAAUUCUCGGGUGCCAA	0.378
GGGAGUUCUACAGUCCGACGAUCGAUAUUUUUGAGCCAUUCUAUUGUGUUCUACUUCACCUAAAAAAAUAAAAUAAAAAUGUUGAUCAAGCAUGGAGUUGAUUUUAUGACCACUAAUGGGUUGUGACCCACAGUGGAAUUCUCGGGUGCCAA	3.24

Block 2
Target: PABPC1L2, full length, GST fusion (mouse, UniProt A0ABA7IW68)
Technique: RNAcompete
Molecule type: RNA
Medium: in vitro
Tested at: 20 nM
Notes: 7-mer, probes averaged, single round
Reference: mean of 7-mers
Reading: higher = stronger binding
Residues (chain): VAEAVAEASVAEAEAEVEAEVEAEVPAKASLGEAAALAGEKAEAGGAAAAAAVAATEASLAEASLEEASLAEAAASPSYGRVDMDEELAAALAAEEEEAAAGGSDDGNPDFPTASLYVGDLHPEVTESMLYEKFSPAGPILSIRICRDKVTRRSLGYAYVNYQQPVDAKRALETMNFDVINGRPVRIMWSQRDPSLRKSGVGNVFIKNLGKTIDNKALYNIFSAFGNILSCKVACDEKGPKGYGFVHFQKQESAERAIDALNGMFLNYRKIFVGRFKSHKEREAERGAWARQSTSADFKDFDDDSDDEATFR
Oligonucleotide	7-mer Z-score
GAAUCGU	-0.197
UUCCCUA	-0.284
UUUUUGC	-0.175
UUAAGGG	0.216

Block 3
Target: Centromere-binding protein 1, full length, His-tagged (CBF1, Saccharomyces cerevisiae, UniProt P17106, residues 1-351)
Sequence of UniProt P17106 (whole entry, looked up): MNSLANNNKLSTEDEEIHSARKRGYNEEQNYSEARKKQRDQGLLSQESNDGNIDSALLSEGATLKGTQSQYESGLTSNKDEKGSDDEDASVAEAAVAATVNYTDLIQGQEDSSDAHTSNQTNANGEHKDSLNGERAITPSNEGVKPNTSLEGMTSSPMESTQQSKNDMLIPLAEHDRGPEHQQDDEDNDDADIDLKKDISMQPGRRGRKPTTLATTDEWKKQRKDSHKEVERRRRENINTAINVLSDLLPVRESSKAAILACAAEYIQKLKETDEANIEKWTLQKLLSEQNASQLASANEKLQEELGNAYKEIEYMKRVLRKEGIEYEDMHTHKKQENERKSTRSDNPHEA
Technique: competition protein-binding microarray
Molecule type: double-stranded DNA, one strand shown
Medium: in vitro
Tested at: 2 µM
Notes: whole 60-bp probe, lowest competitor level
With: Pho4 competitor, 0.05 µM
Reading: higher = stronger binding
All sequences stand within: … GTCTTGATTCGCTTGACGCTGCTG
Oligonucleotide	fluorescence intensity
CCGTTTCCTTTCCATCACGTGCGGAGGTAGCACCCG	3230 a.u.
GGGTAAGGTCTTTTTCGCGTGCTTTTATTTTATTCA	103 a.u.
CTCCTTTGGGATACCACCGTGGGTAATCTCAGCGGG	56.7 a.u.
CTTCTGTAAATTTGCGTGGTGGGTGGACGCGCCCCG	74 a.u.
GACGCGCGACCCGCGCGCGTGCCACTGCAAGCTCTG	64.7 a.u.

Further values, each from its own experiment
Substance	target	assay	test system	setting	scale	measurement	value
PhoQ, residues 284 288 289 292 302 303 AGHLVA	PhoP, residues 12 14 15 18 19 DLLYY (Escherichia coli, UniProt P23836)	Sort-seq, measured: YFP reporter	E. coli	PhoQ-PhoP variant library, with: 10 µM Mg2+	reference: high Mg2+ state, higher = stronger signaling	fold induction	1.95
